# Results from different studies.
# Parts stem from different laboratories: compare values within a part only.

# Set 1
# Target: UBE2V1 UBC core domain (UniProt Q13404)
# Method: yeast two-hybrid
# Matrix: yeast
# Setting: mostly zero background
# Reference: not given
# Reading: higher = stronger interaction
# B1: TRIM72 RING domain (UniProt Q6ZMU5); chain APGLLHQELSCPLCLQLFDAPVTAECGHSFCRACLGRVAGEPAADGTVLCPCCQAPTRPQALST
# B2: ZNF598 RING domain (UniProt Q86UK7); chain AAAPERGGGSCVLCCGDLEATALGRCDHPVCYRCSTKMRVLCEQRYCAVCREELRQVVFGK
# B3: RC3H2 RING domain (UniProt Q9HBD1); chain QAAQWTEFLSCPICYNEFDENVHKPISLGCSHTVCKTCLNKLHRKACPFDQTAINTDIDVL
# B4: CUL9 RING domain (UniProt Q8IWT3); chain AQAVPVRPDHCPVCVSPLGCDDDLPSLCCMHYCCKSCWNEYLTTRIEQNLVLNCTCPIADCPAQPTGAFIR
# B5: MID1 RING domain (UniProt O15344); chain METLESELTCPICLELFEDPLLLPCAHSLCFNCAHRILVSHCATNESVESITAFQCPTCRHVITLSQRGL
# Residues (chain): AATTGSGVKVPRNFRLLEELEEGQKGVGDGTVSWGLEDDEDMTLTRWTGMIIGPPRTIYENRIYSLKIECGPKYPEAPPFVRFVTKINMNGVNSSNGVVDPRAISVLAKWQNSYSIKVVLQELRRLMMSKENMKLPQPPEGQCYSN
Sequence,lacZ reporter activity
PEELQAMDNVCIICREEMVTGAKRLPCNHIFHTSCLRSWFQRQQTCPTCRMDVLRASLPA (SYVN1 RING domain (UniProt Q86TM6)),0
FPEHFVKSISCQICEHILADPVETNCKHVFCRVCILRCLKVMGSYCPSCRYPCFPTDLES (RAG1 RING domain (UniProt P15918)),0
QLQDIKEQTMCPVCLDRLKNMIFLCGHGTCQLCGDRMSECPICRKAIERRILLY (MIB1 RING domain (UniProt Q86YT6)),0
B1 (TRIM72 RING domain),0
EDEVSDNSAECVVCLSDVRDTLILPCRHLCLCNTCADTLRYQANNCPICRLPFRALLQIR (RNF157 RING domain (UniProt Q96PX1)),0
B2 (ZNF598 RING domain),0
B3 (RC3H2 RING domain),0
B4 (CUL9 RING domain),0
DAIPSLSECQCGICMEILVEPVTLPCNHTLCKPCFQSTVEKASLCCPFCRRRVSSWTRYH (RNF168 RING domain (UniProt Q8IYW5)),0
B5 (MID1 RING domain),0
FASPPDSNFVCSVCHGVLKRPARLPCSHIFCKKCILRWLARQKTCPCCRKEVKRKKVVH (RNF151 RING domain (UniProt Q2KHN1)),0

# Set 2
# Target: Interferon regulatory factor 3, full length, phosphomimetic (IRF3, Homo sapiens, UniProt Q14653, residues 1-427, S386D/S396D/S398D/S402D/T404D/S405D)
# UniProt Q14653, sequence (whole entry, unmodified, looked up): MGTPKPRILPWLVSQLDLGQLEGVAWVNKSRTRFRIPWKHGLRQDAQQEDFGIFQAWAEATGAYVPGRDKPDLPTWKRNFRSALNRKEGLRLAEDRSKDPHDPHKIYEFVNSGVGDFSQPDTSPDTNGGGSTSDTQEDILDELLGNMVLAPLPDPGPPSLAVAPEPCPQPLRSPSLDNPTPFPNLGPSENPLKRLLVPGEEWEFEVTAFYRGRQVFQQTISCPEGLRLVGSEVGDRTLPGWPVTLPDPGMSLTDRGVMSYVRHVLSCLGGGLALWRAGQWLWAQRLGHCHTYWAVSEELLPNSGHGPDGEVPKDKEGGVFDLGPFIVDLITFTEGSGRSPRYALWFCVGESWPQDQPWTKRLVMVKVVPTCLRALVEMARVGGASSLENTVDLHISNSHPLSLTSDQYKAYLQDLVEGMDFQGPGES
# Method: protein-binding microarray
# Form: double-stranded DNA, one strand shown
# Matrix: in vitro
# Tested at: 2540 nM top
# Setting: 60-bp whole probe
# Added: salmon DNA 0.4 mg/ml
# Reference: random background probes
# Reading: higher = stronger binding
# All sequences stand within: GCCTAGCAC … GTCTTGATTCGCTTGACGCTGCTG
Sequence,fitted relative affinity [z-score]
TTAGGTTTGGGACTGGGTTAGTGCTAG,-0.597
TCATTTCCCACTTTCAGACTGTGCTAG,3.43
GACGTTCTCCTTCTCCTGACGTGCTAG,3.63
TTAGGCTTCGACACTGGGTTAGTGCTA,-0.923
GACGATATCTGACTGGAGACGTGCTAG,0.0111
AGGACCATCTCATATAAATAGGTGCTA,1.64
CTTGTTTTACAATTTGCTTTGTGCTAG,1.46
TCAAGTCCCGAGAATGGTACTGTGCTA,-0.471
TCATTACTAAAATTTCATACTGTGCTA,0.749
GACGAACTGGGCACTGGAGACGTGCTA,-0.608
TCAACTGTCTGTTTCCTACTGTGCTAG,2.89
TATGTTCCTTATTTAAGACCGTGCTAG,3.71
TTAAGTTTCCTTTTCCTTTAGTGCTAG,13.1
GACGGCTTCGGTCTCGGGACGTGCTAG,-0.108
TTAGAACTGATTCTCGATTAGTGCTAG,0.294
GACGGTTCCCGTTTCCTGACGTGCTAG,4.06
TTAGATTTCCTACTGCTTTAGTGCTAG,1.77
TTAAGTTTCGGGTTTCGGTTAGTGCTA,6.72
TTAGGTCTCGGACTGGGTTCGTGCTAG,-0.381

# Set 3
# Target: Histone acetyltransferase KAT6A, both winged helices, GST fusion (KAT6A, Homo sapiens, UniProt Q92794, residues 1-181)
# Method: protein binding microarray
# Form: double-stranded DNA, one strand shown
# Matrix: in vitro
# Tested at: not given
# Setting: 8-mer, flanks averaged, mean of 2 arrays, mostly near background
# Reference: not given
# Reading: higher = stronger binding
# Construct (chain): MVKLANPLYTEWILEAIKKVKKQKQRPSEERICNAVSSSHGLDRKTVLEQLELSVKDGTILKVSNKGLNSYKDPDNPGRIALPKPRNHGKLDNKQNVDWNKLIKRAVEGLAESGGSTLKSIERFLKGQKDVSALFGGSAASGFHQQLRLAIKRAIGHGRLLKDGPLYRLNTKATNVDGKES
Sequence,E-score
GCCTGTCA,0.0119
CCTCTATA,-0.0965
AACGGGCC,0.181
ATGAGAAG,-0.0386
CCATGCAA,-0.0751
CCGAAGGC,-0.00678
CGTTAGAC,0.0573
CCGGACTC,0.118
AAATCCGG,0.0856
AGTCACAA,-0.127
CTCCTGGC,0.0337
CCTCTGCC,-0.094
GACTCTCC,-0.192
CTGGTATC,-0.0887
CATTCCCA,-0.0955
GGGTTTGA,0.0115
AATAATGC,-0.0153
TAGAGTGA,-0.253
GTGCCATA,-0.0125
CTCAAGTC,-0.158
ATTTACTG,-0.153
GCGCCTCA,0.243

# Set 4
# Target: RING finger protein unkempt homolog, zinc fingers 1-6, GST-SBP tag (UNK, Homo sapiens, UniProt Q9C0B0, residues 30-357)
# Method: RNA Bind-n-Seq
# Form: RNA
# Matrix: in vitro
# Tested at: not given
# Setting: RNA with constant flanks, human and mouse sites, ends assumed
# Reference: input RNA pool
# Reading: higher = stronger binding
# All sequences stand within: GGGAGUUCUACAGUCCGACGAUC … CAACAGAGGAUUGAGCAUCA
# Residues (chain): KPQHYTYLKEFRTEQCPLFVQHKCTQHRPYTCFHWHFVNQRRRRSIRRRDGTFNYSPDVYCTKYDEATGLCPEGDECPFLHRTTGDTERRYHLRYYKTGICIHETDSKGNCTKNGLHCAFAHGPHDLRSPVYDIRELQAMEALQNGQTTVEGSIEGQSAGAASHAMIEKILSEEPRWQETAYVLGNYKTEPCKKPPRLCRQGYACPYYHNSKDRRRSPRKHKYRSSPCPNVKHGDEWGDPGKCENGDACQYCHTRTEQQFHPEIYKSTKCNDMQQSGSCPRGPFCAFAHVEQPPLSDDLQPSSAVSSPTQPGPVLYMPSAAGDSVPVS
Sequence,bound/input enrichment [ratio]
GAGAACCAGGAACUCGAGGCUCCUGGAGGAAUUGCCACACCGCCAGUGUACGGUCAGCUUCUAGCUUUGUACUUGCUCCAGAACGACAUGAAUAAUGCAAGAUAUCUGUGGAAGAGGAUA,0.204
CUUGGCCAGGAGGGUGAUGCCAGCUAUCUUGCUUCUGAAAUAUCUACCUGGGAUGGAGUGAUAGUAACACCUUCAGAAAAGGCUUAUGAGAAGCCACCAGAGAAGAAGGAAGGAGAGGAA,0.353
GCCUGUGAGGAUUACAAGAAGAUCAAGUCCCCUGCCAAGAUGGCUGAGAAGGCAAAGCAAAUUUAUGAAGAAUUCAUUCAAACGGAGGCUCCUAAAGAGGUGAAUAUUGACCACUUCACU,0.168
AACUCAAUGGUUGAGGGCUCUGAACUCAAAAAGGUUCGUUCUAACUCCAGAAUUUACCAUCGGUAUUUUCUGCUGGACGCCGACAUGCAAAGCCUGAGGUGGGAGCCAUCUAAGAAGGAU,0.0657
CACCGGUCCCCUCACAUCCCGUAUAAGUUGCUGCACCUGGUGUGGACCCACGCGAGGCACCUAGCAGGCUACGAGCAGCAGGACGCCCACGAGUUCCUCAUCGCGGCCCUGGACGUGCUC,0.115
CCUAGCGGUGGGGACAUUCGAAUGAAUCAGGGGCCUGAGGAAUCAGAGAGCCACCUCUGCUCUGACAGCACUCCUAAGAUGGAAGGCCCCCAGGGGGCUUGUGGCCUGAAGCUGGCAGGA,0.22
CCAGGCAGAGGAGAUAUGGAACAGAAUGACUCUGACAACCGGAGAAUAAUUCGCUAUCCGGACAGUCAUCAGCUUUUCGUUGGUAACUUGCCUCAUGAUAUUGAUGAAAAUGAACUGAAA,0.153
UUUGUUGUUACCAAGAAAACUCAGACUAUUUACCCCAAACCAGUGACAUUCAAUACCUUGCAAAUUCCACCAAAUGUUGCUACAGAAACACAAUUAAAAGGUGGUCAGCAUCCUCAAGCU,0.111

# Repeated from above (set 2):
Sequence,fitted relative affinity [z-score]
GACGTTCTCCTTCTCCTGACGTGCTAG,3.63
TATGTTCCTTATTTAAGACCGTGCTAG,3.71
TTAGGTTTGGGACTGGGTTAGTGCTAG,-0.597
TCATTACTAAAATTTCATACTGTGCTA,0.749
TTAGGTCTCGGACTGGGTTCGTGCTAG,-0.381
TTAGAACTGATTCTCGATTAGTGCTAG,0.294
